Published values pooled from the literature.
Every numbered part comes from another study and shows a few of its results, in no order. Changes are numbered by the printed parent chain.

Study 1 — method: RNA Bind-n-Seq; form: RNA; matrix: in vitro; concentration: 365 nM; reference: no-protein control; direction: higher = stronger binding
Target: RNA binding protein fox-1 homolog 2, RRM domain, GST-SBP tag (RBFOX2, Homo sapiens, UniProt O43251-10, residues 100-194)
Notes: natural RNA segment, single round, ends assumed
Oligonucleotide | RBNS enrichment (R)
GGGAGUUCUACAGUCCGACGAUCUAUUUUUUGUAAACUAAUAAUUCAUUUGGUGCUGGUCUAUUGAUUGGGGGCCUACUUCUUCAUGGAAGAAUUACUUUUAUUCUCAAACUACAGAAUAAUGUGCUAAGUAGUGGAAUUCUCGGGUGCCAA | 0.74
GGGAGUUCUACAGUCCGACGAUCAAAUAAAAAGUAUAAACAUCACUGCACUGUGACUGGUGGGAAAAACUGACAGUUUCCUCUUUGCACAUGUUUAACAUUUGGCUGUUAUAAUAUAUGGUCCUCGGUUGGGGUGGAAUUCUCGGGUGCCAA | 0.599
GGGAGUUCUACAGUCCGACGAUCGCCUUUGGUGUUUGGGGUUUCCUGAAGUGGGAGGAGUGUUGAGUAAGUUGGUCUUUCCCGGUGCUAUACUUGCCUCCUCUCCACGGAAGAAUUGUUCAGGAGAUGCGCUUUGGAAUUCUCGGGUGCCAA | 0.485
GGGAGUUCUACAGUCCGACGAUCUCACCAGCUGUUGAGAGUCUGCGAUUAUGAAGAGCAGGAUCUUAUUACUUCAAUGAAAGCAUGUAACAAGUUUCUCAAACCACCAACAGCCAAGUGGAUUUGGUACAGUGUGGAAUUCUCGGGUGCCAA | 0.795

Study 2 — target: CCNB3, cyclin fold, Cln2 fusion (human); method: yeast growth competition, sequencing; matrix: yeast; notes: weak parent motif; reference: not given; direction: higher = stronger binding
Starting sequence: CDC6 docking peptide (human); TLKGRRLVFDNQL; partner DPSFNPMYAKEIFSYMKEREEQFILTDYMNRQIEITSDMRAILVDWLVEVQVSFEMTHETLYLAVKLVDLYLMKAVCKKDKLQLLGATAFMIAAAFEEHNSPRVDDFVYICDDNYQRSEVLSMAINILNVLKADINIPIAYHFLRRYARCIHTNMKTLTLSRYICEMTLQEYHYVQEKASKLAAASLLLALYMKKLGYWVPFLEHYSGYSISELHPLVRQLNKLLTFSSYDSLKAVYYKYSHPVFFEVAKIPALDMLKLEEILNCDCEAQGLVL
Variant | normalised enrichment score
TLKGRRLSFDNQL [V8S] | 0.369
TLKGRRLVFVNQL [D10V] | -0.426
TLKGRRLRFDNQL [V8R] | 0.262
TLKGRRLVFSNQL [D10S] | 0.523

Study 3 — method: DHFR PCA, deep sequencing; matrix: yeast; added: (+)-ABA 710 µM; reference: wild-type fitted maximum; direction: higher = stronger binding
Target: ABI1, truncated, D143A, DHFR fusion (Arabidopsis thaliana)
Notes: methotrexate growth selection, single substitutions
Starting sequence: PYL1, truncated, DHFR fusion (Arabidopsis thaliana); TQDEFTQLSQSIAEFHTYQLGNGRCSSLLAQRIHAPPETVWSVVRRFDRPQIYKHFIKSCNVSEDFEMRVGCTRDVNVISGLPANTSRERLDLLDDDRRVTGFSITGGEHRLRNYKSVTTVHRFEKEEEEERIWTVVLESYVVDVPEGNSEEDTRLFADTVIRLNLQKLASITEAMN
Variant | relative binding score [%]
D97W | 96.5
Y141N | -7.17
L166S | 1.4

Other studies, line by line
Molecule | target | test | test system | setting | how to read | endpoint | value
PhoQ, residues 284 288 289 292 302 303 SSTLLI | PhoP, residues 12 14 15 18 19 DLLYY (Escherichia coli, UniProt P23836) | Sort-seq, measured: YFP reporter | E. coli | PhoQ-PhoP variant library, added: 10 µM Mg2+ | reference: high Mg2+ state, higher = stronger signaling | fold induction | 1.08

Repeated from above (study 1):
Oligonucleotide | RBNS enrichment (R)
GGGAGUUCUACAGUCCGACGAUCGCCUUUGGUGUUUGGGGUUUCCUGAAGUGGGAGGAGUGUUGAGUAAGUUGGUCUUUCCCGGUGCUAUACUUGCCUCCUCUCCACGGAAGAAUUGUUCAGGAGAUGCGCUUUGGAAUUCUCGGGUGCCAA | 0.485
